# Measured values gathered from unrelated publications.
# Parts stem from different laboratories: compare values within a part only.

# Study 1
# Target: Interferon regulatory factor 5, full length, phosphomimetic (IRF5, Homo sapiens, UniProt Q13568-2, residues 1-514, S451D/S453D/S456D/S462D)
# Technique: protein-binding microarray
# Form: double-stranded DNA, one strand shown
# Medium: in vitro
# Tested at: 940 nM top
# Notes: 60-bp whole probe
# Added: salmon DNA 0.4 mg/ml
# Baseline: random background probes
# Reading: higher = stronger binding
# Constant ends, left off below: GCCTAGCAC … GTCTTGATTCGCTTGACGCTGCTG
Strand,fitted relative affinity
ATAGATATCAGTCTCGATTAGTGCTAG,2.8 z-score
TTAGAACTGAGGTTTCGATTAGTGCTA,4.28 z-score
TCATTTTCATTTTTTTTACTGTGCTAG,2.47 z-score
TTAGGACTGGGTTTCGGGTAGTGCTAG,3.91 z-score
TTACAACTGGGGTATCGATTAGTGCTA,3.72 z-score
TTAGGTTTTCTACTGCTTTAGTGCTAG,0.616 z-score
GACGGTCTCCTTATGCTGACGTGCTAG,0.196 z-score
GACGGTATCCTACTGCTGAAGTGCTAG,-0.148 z-score
GGCCCTATAGGTTTCTATATGTGCTAG,1.58 z-score
AAGTGTTTGGTGTCTTTTGTGGTGCTA,0.635 z-score
GACGATTTCGGGTAACGAGACGTGCTA,0.548 z-score
GTCGGTATCGGGACTGGGGACGTGCTA,3.7 z-score
TCACATACGAGTTTCCAACTGTGCTAG,-0.0118 z-score
TTAGAACTGAGACTGAATTAGTGCTAG,0.0148 z-score
TCAGTTTTACAGGTTCTCACTGTGCTA,0.562 z-score
TTGGATATCAGTCTCGATTAGTGCTAG,3.28 z-score
TCAATCTTCATTGTCATACTGTGCTAG,0.342 z-score
TGTTTTACAGGTTCTCTTTTAGTGCTA,0.304 z-score
TTCGGTTTCGGTTTCGGTTAGTGCTAG,17 z-score

# Study 2
# Target: RNA binding protein fox-1 homolog 2, RRM domain, GST-SBP tag (RBFOX2, Homo sapiens, UniProt O43251-10, residues 100-194)
# Technique: RNA Bind-n-Seq
# Form: RNA
# Medium: in vitro
# Tested at: 365 nM
# Notes: natural RNA segment, single round, ends assumed
# Baseline: no-protein control
# Reading: higher = stronger binding
# Construct (chain): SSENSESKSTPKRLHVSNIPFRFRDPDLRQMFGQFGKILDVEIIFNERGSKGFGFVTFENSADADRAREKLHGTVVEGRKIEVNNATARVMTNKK
Strand,RBNS enrichment (R)
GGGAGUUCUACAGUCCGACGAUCCCAUUUUUAAAUAGUACUUUCUUUGAGUCAUAAAUUGUAUCUAACCAUCUUGGGUUCUGGUCAGUGCUGCAGGCUCCUGGGCUCCCCUCUGCCCAGUGAGCAACUUAUACUGGAAUUCUCGGGUGCCAA,0.707
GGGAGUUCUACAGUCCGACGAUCUUCAGAUGAGGCAACAUUUUCUUGAGAUAAUUACCCAAGUUUCAUCCAUGUUGAAUGGUACAAAAUAUUUCUGUGAAACUAACAGGAAGAUAUUUUCAGAUAACUAGGAUUGGAAUUCUCGGGUGCCAA,0.324
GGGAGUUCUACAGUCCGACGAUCUUCAUUCUUAUAUCUUCAUUAGUUCAUCAUAAAUCUGUCCAGUUGAGGCCUCAGGACCACGGCAUGAUUUCAUGACUCCGAAGUAUUUUACAGAAACAUUUUUUAAAUAAUGGAAUUCUCGGGUGCCAA,0.657
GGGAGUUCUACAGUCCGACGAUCGGUGAGCCGAAUGGGCAUGGCUGCGCUGGAUCCUGCGCCUCUGGACGUGCUAGCCAUUUCCAGUGUCCCAACUACUGUCAUCGUGAGGUUUUCAUCGGCUGUGCCAUUUCUGGAAUUCUCGGGUGCCAA,0.22
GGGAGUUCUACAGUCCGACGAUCAAAGUUGAGCUGUAUUUUUGUUGUUGAUUUAUCUGGAUUUUUUUUAAAGCCUUCUAAAACCCAGUGAAUUCAAUACCUUAAUUAGUACAUACUAUCUUAUGUAAUGCAUAUGGAAUUCUCGGGUGCCAA,0.745
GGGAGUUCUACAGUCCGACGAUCACAUCUGAAUCCAAGGGAUCCAAGUGGCCCAGCAGAAACGGAAUUCUUGUUAAAAUGACUGAUUCUCGUGCAUGUGAAAGGCUCUGGGGAAUGAAUACCUGUUUGGUCCAUGGAAUUCUCGGGUGCCAA,15.5
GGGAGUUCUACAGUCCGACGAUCGAGUGCGCGCCGUCGGGGAGGCGGGAACGCGGGCCCGCGCGCGGACUUUGCACUUUGAAUCCAGAGGAAGAUGAAUUUUUAAAAUCUCCAUCAAACGUGCCUUAAAGCUAUGGAAUUCUCGGGUGCCAA,0.366
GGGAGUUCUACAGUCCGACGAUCUUUUGUGGACACAGAUUUUUGUAGUUUCCAUUUUGGAAGGCUAAAGUGUUUUGUUUGUUUGAAACAGUUUUACACUUUCUAAUGUACAGUACUUGAAGUUCGUACUAGAGUGGAAUUCUCGGGUGCCAA,0.395

# Study 3
# Target: Histone acetyltransferase KAT6A, both winged helices, GST fusion (KAT6A, Homo sapiens, UniProt Q92794, residues 1-181)
# Technique: protein binding microarray
# Form: double-stranded DNA, one strand shown
# Medium: in vitro
# Tested at: not given
# Notes: 8-mer, flanks averaged, mean of 2 arrays, mostly near background
# Baseline: not given
# Reading: higher = stronger binding
# Construct (chain): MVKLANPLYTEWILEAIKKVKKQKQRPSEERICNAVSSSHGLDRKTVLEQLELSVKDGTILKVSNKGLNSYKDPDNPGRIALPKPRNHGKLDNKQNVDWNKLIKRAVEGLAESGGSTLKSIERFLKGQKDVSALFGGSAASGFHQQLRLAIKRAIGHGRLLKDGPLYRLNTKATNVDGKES
Strand,E-score
ACTTAGGA,-0.206
CTTTCATA,-0.0276
ACTGAGTG,-0.159
CGAGTGAA,0.0446
AGCTGGAT,-0.236
CCGAGCAC,0.0277
CTATACTA,0.0118
GTAAAAAA,0.0136
CATTTAGA,-0.12
GAAATATC,0.0217
CACCCGTA,0.163
CCAGTGCG,0.0879
AGACTAGA,-0.17
CGTTCGGC,0.209
AGCAAGGG,-0.17
ACCTAAAG,-0.16
AGCTGGGG,-0.301
AAAGGAGT,-0.167
ACATATAC,-0.0822
GTTAGCAA,-0.181
AATACAAC,0.0367
ATACTTTC,-0.0398
CCGGAGGA,0.0604

# Study 4
# Target: Ras GTPase-activating protein-binding protein 1, RRM domain (G3BP1, Homo sapiens, UniProt Q13283)
# UniProt Q13283, sequence (whole entry, looked up): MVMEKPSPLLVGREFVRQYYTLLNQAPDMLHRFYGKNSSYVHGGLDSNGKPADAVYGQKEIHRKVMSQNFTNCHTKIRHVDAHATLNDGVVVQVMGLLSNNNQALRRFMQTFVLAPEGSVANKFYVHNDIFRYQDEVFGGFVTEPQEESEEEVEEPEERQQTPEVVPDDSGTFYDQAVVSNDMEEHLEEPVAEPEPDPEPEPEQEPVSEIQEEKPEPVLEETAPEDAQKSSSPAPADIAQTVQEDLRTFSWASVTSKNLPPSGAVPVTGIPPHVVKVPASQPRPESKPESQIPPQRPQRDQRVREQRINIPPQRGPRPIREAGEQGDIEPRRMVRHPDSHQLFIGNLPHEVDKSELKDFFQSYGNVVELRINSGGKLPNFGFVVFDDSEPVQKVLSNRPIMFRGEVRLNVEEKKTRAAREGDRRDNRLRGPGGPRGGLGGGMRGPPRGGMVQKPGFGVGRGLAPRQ
# Technique: RNA Bind-n-Seq
# Form: RNA
# Medium: in vitro
# Tested at: 1 µM
# Notes: whole 134-nt RNA, ends assumed
# Added: 150 mM KCl
# Baseline: input library
# Reading: higher = stronger binding
Strand,log2 enrichment
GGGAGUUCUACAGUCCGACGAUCAGUCCUGUGCUACACAUCGUAUGUACCGAAUCGGAAAAGGGGAAAAGGGGAAAAGGGGAAAGUAUUAUGUUACGCCGUUCGGAUCUGCACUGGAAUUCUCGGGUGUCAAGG,0.272
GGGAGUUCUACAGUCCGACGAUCCUCAAGUCCUGUGCUACACAUCGUAUGUACCGAAUCGGGGCGGGCGGGGCGGGAAAGUAUUAUGUUACGCCGUUCGGAUCUGCACUUCCAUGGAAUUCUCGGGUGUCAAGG,0.19
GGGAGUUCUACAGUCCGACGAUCAAGUCCUGUGCUACACAUCGUAUGUACCGAAUCGGUUUUGGGUUUUGGGUUUUGGGAAAGUAUUAUGUUACGCCGUUCGGAUCUGCACUUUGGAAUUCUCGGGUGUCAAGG,-0.234
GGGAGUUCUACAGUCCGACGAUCCAAGUCCUGUGCUACACAUCGUAUGUACCGAAUCGGGUGGGAAAGGGAAAAAGGGAAAGUAUUAUGUUACGCCGUUCGGAUCUGCACUUCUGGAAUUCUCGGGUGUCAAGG,0.709
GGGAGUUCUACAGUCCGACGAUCCCUGUGCUACACAUCGUAUGUACCGAAUCAAACCCCCAAAUUUUUUUAAAUUUUUUUAAAAAAGUAUUAUGUUACGCCGUUCGGAUCUGCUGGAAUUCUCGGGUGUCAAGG,-0.438
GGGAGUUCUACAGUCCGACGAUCCUGUGCUACACAUCGUAUGUACCGAAUCGGGGUUUGGGGUUUUUUUGGGGAAAAAAAGGGGAAAGUAUUAUGUUACGCCGUUCGGAUCUGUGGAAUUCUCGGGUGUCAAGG,1.03
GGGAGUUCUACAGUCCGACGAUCACCAUGCAGGUGGGCAUCUUUGGGAAGUGGGGCAAGGGGGAAAUAGGGAGGGGGGUAACACUUUGGGAACAGGUGGUCCCAGGUCGUUUCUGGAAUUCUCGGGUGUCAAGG,-0.317
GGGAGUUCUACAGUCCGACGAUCUGGCCCUGGUGGCAUGCGGGGAGGAAGAGGUGGCCUCAUGGAUCGUGGUGGUCCCGGUGGACUGUUCAGAGGUGGCCGUGGUGGAGACAGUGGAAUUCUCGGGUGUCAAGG,0.811
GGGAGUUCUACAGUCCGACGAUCUGGCCCUGGUGGCAUGCGGGGAGGAAGAGGUGGCCUCAUGGAUCGUGGUGGUCCCGGUGGAAUGUUCUGAGGUGGCCGUGGUGGAGACAGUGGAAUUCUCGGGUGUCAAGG,2.21

# Some of these lines once more (study 2):
Strand,RBNS enrichment (R)
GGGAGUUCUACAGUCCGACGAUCGGUGAGCCGAAUGGGCAUGGCUGCGCUGGAUCCUGCGCCUCUGGACGUGCUAGCCAUUUCCAGUGUCCCAACUACUGUCAUCGUGAGGUUUUCAUCGGCUGUGCCAUUUCUGGAAUUCUCGGGUGCCAA,0.22
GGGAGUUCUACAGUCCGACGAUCUUCAGAUGAGGCAACAUUUUCUUGAGAUAAUUACCCAAGUUUCAUCCAUGUUGAAUGGUACAAAAUAUUUCUGUGAAACUAACAGGAAGAUAUUUUCAGAUAACUAGGAUUGGAAUUCUCGGGUGCCAA,0.324
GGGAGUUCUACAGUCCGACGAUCCCAUUUUUAAAUAGUACUUUCUUUGAGUCAUAAAUUGUAUCUAACCAUCUUGGGUUCUGGUCAGUGCUGCAGGCUCCUGGGCUCCCCUCUGCCCAGUGAGCAACUUAUACUGGAAUUCUCGGGUGCCAA,0.707
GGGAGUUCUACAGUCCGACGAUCUUCAUUCUUAUAUCUUCAUUAGUUCAUCAUAAAUCUGUCCAGUUGAGGCCUCAGGACCACGGCAUGAUUUCAUGACUCCGAAGUAUUUUACAGAAACAUUUUUUAAAUAAUGGAAUUCUCGGGUGCCAA,0.657
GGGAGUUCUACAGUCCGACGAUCACAUCUGAAUCCAAGGGAUCCAAGUGGCCCAGCAGAAACGGAAUUCUUGUUAAAAUGACUGAUUCUCGUGCAUGUGAAAGGCUCUGGGGAAUGAAUACCUGUUUGGUCCAUGGAAUUCUCGGGUGCCAA,15.5
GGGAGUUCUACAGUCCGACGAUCAAAGUUGAGCUGUAUUUUUGUUGUUGAUUUAUCUGGAUUUUUUUUAAAGCCUUCUAAAACCCAGUGAAUUCAAUACCUUAAUUAGUACAUACUAUCUUAUGUAAUGCAUAUGGAAUUCUCGGGUGCCAA,0.745
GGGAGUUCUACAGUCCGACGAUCGAGUGCGCGCCGUCGGGGAGGCGGGAACGCGGGCCCGCGCGCGGACUUUGCACUUUGAAUCCAGAGGAAGAUGAAUUUUUAAAAUCUCCAUCAAACGUGCCUUAAAGCUAUGGAAUUCUCGGGUGCCAA,0.366
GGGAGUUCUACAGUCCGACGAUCUUUUGUGGACACAGAUUUUUGUAGUUUCCAUUUUGGAAGGCUAAAGUGUUUUGUUUGUUUGAAACAGUUUUACACUUUCUAAUGUACAGUACUUGAAGUUCGUACUAGAGUGGAAUUCUCGGGUGCCAA,0.395
